Assay results collected from several papers.
Each numbered part is a random draw from the data of one study; scales do not carry over between parts. Positions count from the first letter of the parent shown.

Block 1
Target: Histone acetyltransferase KAT6A, both winged helices, GST fusion (KAT6A, Homo sapiens, UniProt Q92794, residues 1-181)
Technique: protein binding microarray
Form: double-stranded DNA, one strand shown
Sample: in vitro
Tested at: not given
Setting: 8-mer, flanks averaged, mean of 2 arrays, mostly near background
Relative to: not given
Reading: higher = stronger binding
Residues (chain): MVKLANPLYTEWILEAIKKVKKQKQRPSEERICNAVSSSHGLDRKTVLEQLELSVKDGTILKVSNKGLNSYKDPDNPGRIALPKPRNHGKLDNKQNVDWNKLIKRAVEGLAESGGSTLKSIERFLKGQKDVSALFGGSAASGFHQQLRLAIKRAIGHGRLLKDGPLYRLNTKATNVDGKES
Strand | E-score
GCCGAACA | 0.17
ACTTCATA | -0.024
CCTATTCA | -0.0514
GGCTGTCA | 0.0129
GCGTTGCC | 0.106
AGCGGCTC | 0.257
GACGCGTC | 0.284
GGATCATA | 0.0278
ACTTCCCT | -0.242
ATATCTCA | -0.0858
CGTTGGAA | -0.0669
CGAAAACG | 0.175
AGCGCTTG | 0.266
GCGTACAC | 0.168
CAAGATAG | -0.115
ACGCCGTG | 0.303
CCACTACA | -0.242
ATGCTTCG | -0.00409
AGTCCAAT | -0.135
AGACAAGG | -0.0247
CAATACGG | 0.16
CGGACGCA | 0.199
ATAATCGG | -0.00231
CAAGGTAG | -0.114
CTTCCCAC | 0.0028

Block 2
Target: RING finger protein unkempt homolog, zinc fingers 1-6, GST-SBP tag (UNK, Homo sapiens, UniProt Q9C0B0, residues 30-357)
Chain of UniProt Q9C0B0 (30-357, looked up): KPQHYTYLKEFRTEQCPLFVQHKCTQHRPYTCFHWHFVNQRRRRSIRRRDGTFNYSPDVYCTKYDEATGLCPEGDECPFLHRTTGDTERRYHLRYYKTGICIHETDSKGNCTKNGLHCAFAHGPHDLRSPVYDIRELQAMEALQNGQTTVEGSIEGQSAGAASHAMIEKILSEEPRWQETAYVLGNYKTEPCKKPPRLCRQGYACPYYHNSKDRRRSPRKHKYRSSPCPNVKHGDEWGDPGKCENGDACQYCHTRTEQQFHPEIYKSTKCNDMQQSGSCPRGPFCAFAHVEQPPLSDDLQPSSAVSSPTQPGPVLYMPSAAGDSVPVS
Technique: RNA Bind-n-Seq
Form: RNA
Sample: in vitro
Tested at: not given
Setting: RNA with constant flanks, human and mouse sites, ends assumed
Relative to: input RNA pool
Reading: higher = stronger binding
Strand | bound/input enrichment
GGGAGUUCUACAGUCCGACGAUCACUGGCCGUUACGAUGAGGGAGACAGUCGGGGGGGGGGGGCAGUCACCAGCUGAGCUGUACAGCCACAGCCACGGCCGCGGCAUGGCUCGGAGCUUGUUUGACACUGUGCUCAGUCUGUUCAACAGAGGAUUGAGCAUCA | 1.92 ratio
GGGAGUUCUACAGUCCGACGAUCUUUAAAACAGGCCUAAAGGCUUUGAUGACAGUUGGAAAAGAGCCAUUUCCCACCAUUUAUGUGGACUCACAAAAGGAAAAUGAGAGAUGGGAUGUUAUUUCUAAGUCACAGAUGAAGAACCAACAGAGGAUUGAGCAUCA | 0.143 ratio
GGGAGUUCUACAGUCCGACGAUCAAUCAAGGAGUCUGAUUGCAGGAAGGAAAGAGCAUGUAAGAAACACAUUUUUUAAAGUGUUAUUUUGUAUAAAUGGGAAGAAAGACGCAAUUAAGUUAUUGACACUUGGGACCUGGACGACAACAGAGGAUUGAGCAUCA | 0.465 ratio
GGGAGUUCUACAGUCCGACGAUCGAGUCUAUGGUGAUGUACAUCGAGUGAAGAUUAUGUUUAAUAAGAAAGAAAAUGCCUUGGUUCAGAUGGCGGAUGCAAAUCAAGCUCAGCUAGCAAUGAACCAUCUAAGUGGUCAGAGACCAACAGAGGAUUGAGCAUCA | 0.226 ratio
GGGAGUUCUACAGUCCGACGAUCAAUACUACAGUUGAAAGUUUGAUACAAAAAUUUGCUGAGUCAAAAGGCACUGGGAAGGAAAGACCUGGCCUCAUUGAAUUUGAAGAAUGUGACACUGCUAGUGCAGUUGAAGGUAUAAAACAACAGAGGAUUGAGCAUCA | 0.217 ratio
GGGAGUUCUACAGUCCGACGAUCUAUACAAAAAUUCCAGAUCCAAGCACCUGGAACCUCAACCCAGAUGCCUCCUACGUGUAUUAUUGCGCAAAUGAGACGGUGCAUGGUGUGGAGUUUGACUUUAUACCCGAUGUCAAGGGACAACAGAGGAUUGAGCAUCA | 0.172 ratio
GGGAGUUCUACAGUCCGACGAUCGAAGCAAUAAAAAAGAAGCUUGGAGAAUUAACAGGGACAGUGAAGGAGAGUCUUGAUGAAGUCAGUAAGAGUGACCUUGGCCGGAAGAUCAAGGAGGGGGUAGAAGAGGCCGCCAGGACACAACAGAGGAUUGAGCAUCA | 0.565 ratio
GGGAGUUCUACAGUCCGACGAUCAAUGUAGUGUUUUUCCUUUAUAACAUACUUCAGUGACUAAAACUGCUGGCAGCAGUUAAGUUAGUGGGCUUUCUGACUGCAGAUAGGAUUAUUCAUUAAAAAUGUCUGUGUGAUGCUGUACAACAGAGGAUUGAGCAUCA | 2.27 ratio

Block 3
Target: RNA binding protein fox-1 homolog 2, RRM domain, GST-SBP tag (RBFOX2, Homo sapiens, UniProt O43251-10, residues 100-194)
Technique: RNA Bind-n-Seq
Form: RNA
Sample: in vitro
Tested at: 365 nM
Setting: natural RNA segment, single round, ends assumed
Relative to: no-protein control
Reading: higher = stronger binding
Strand | RBNS enrichment (R)
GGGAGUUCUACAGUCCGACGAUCUUUCACUGUUGAUUUUACUUUAAGAUGUAGCCAGAGAAAGUUUUGUUUUUAAGGCAUUUUAAAGCUGUAGCAGGCGUAUGCUUCAUUUUCUUCCAAAGAGGCAAAAGCAGUGGAAUUCUCGGGUGCCAA | 0.513
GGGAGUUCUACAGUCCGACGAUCUAAAACUGUAAUUUGAUUCACAUCUUUUCAAAUGGAGUUGGAGUUGAUUCAUAUUACAAUAUUUGUGUGCAAAAUGUGUAUGUUUUUCAGUUUAAAGUCAUGUUUUUAAAUGGAAUUCUCGGGUGCCAA | 0.586
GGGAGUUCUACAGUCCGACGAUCAUCUGCAGCCUUCAGAAUGUCCUGUAGGAGUGUCACCAACCCAGGUCCAAGUGUUCAUGCCUGUCCUUCACCAGGGACUGUAGGACCCUUACUUGUUUUGUUUGGUUGGGUGGAAUUCUCGGGUGCCAA | 2.03
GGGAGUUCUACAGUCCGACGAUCUCAGGGAUUUGUUGGCUAAGGUUUCUCUGUGCAUAUAUAUAUAUAUACAUAUGUAUAUAUAUUUAAAUACACAUAUAUAUUGUACAGAAUAAAAAUGUUUUAUUGAAUACUGGAAUUCUCGGGUGCCAA | 1.47
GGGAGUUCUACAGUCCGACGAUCGUGUGGGGGAGGCAAGGGAAGAGGACGAAAAUGAUGAGAAUGACACUGAGGUCAUUGUUUAGAGCAGAUCUCAAGCAGCCGUUUGGCCACGCCAUAUCCUUUGUGGAGCAUGGAAUUCUCGGGUGCCAA | 1.45
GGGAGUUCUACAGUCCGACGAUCUAGCAAGCAUGCACAUCAAAUUCACCAGAAGUACAACCCAUCGGCGCAGUCAGAGGAUGGAGUCUGAUGUCUUCCGGCUGCUGCCUUUGUGGGCAGAGCUAAUCCAAGUUUGGAAUUCUCGGGUGCCAA | 4.94
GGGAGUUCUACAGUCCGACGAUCCCCCUACACCUUCUGGGCUGAAGAUCACCCAGCUGUGUUCAGAAUUUUCUUACUGUGCUUAGGACUGCACGCAAGUGAGCAGACACCACCGACUUCCUUUCUGCGUCACCUGGAAUUCUCGGGUGCCAA | 0.956
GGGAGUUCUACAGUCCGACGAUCCACCAGCAGCUCUUGGGAAGGACUUGCUGGGAGGCUGAGAGAGGCUUUGGGCACAGCCUGCUGUCUUUUCCAUUUCCUAAAGUUUACUUCAUUGUCUUGAGGCUUCCAGGUGGAAUUCUCGGGUGCCAA | 0.539

Block 4
Target: CCNB1, cyclin fold, Cln2 fusion (human)
Technique: yeast growth competition, sequencing
Sample: yeast
Setting: weak parent motif
Relative to: not given
Reading: higher = stronger binding
Starting sequence: CDKN1A docking peptide (human); SKACRRLFGPVDS
Change | normalised enrichment score
L7N | 0.143
F8L | -0.401
K2N | 0.322
L7D | 0.171
R6G | -0.147
D12G | -0.152
R6L | 0.0673
V11P | -0.113
F8T | -0.412
V11Q | 0.0546
P10F | 0.0621
P10I | 0.188
G9D | 0.237
L7Q | 0.361
G9C | 0.189
V11L | 0.12
F8K | 0.397
C4T | 0.407
D12Y | 0.149

Excerpt of the above (block 4):
Change | normalised enrichment score
C4T | 0.407
V11P | -0.113
D12G | -0.152
L7Q | 0.361
P10F | 0.0621
F8K | 0.397
P10I | 0.188
